# Assay results collected from several papers.
# Compare with care: the assays were run in different laboratories.
# B1: human EEF1A1; sequence looked up; chain GKEKTHINIVVIGHVDSGKSTTTGHLIYKCGGIDKRTIEKFEKEAAEMGKGSFKYAWVLDKLKAERERGITIDISLWKFETSKYYVTIIDAPGHRDFIKNMITGTSQADCAVLIVAAGVGEFEAGISKNGQTREHALLAYTLGVKQLIVGVNKMDSTEPPYSQKRYEEIVKEVSTYIKKIGYNPDTVAFVPISGWNGDNMLEPSANMPWFKGWKVTRKDGNASGTTLLEALDCILPPTRPTDKPLRLPLQDVYKIGGIGTVPVGRVETGVLKPGMVVTFAPVNVTTEVKSVEMHHEALSEALPGDNVGFNVKNVSVKDVRRGNVAGDSKNDPPMEAAGFTAQVIILNHPGQISAGYAPVLDCHTAHIACKFAELKEKIDRRSGKKLEDGPKFLKSGDAAIVDMVPGKPMCVESFSDYPPLGRFAVRDMRQTVAVGVIKAVDKKAAGAGKVTKSAQKAQKAK
# B2: MAP1LC3C (Homo sapiens, UniProt Q9BXW4); chain MPPPQKIPSVRPFKQRKSLAIRQEEVAGIRAKFPNKIPVVVERYPRETFLPPLDKTKFLVPQELTMTQFLSIIRSRMVLRATEAFYLLVNNKSLVSMSATMAEIYRDYKDEDGFVYMTYASQETFG
# B3: VAMP8 8-73 (Homo sapiens, UniProt Q9BV40); chain GGNDRVRNLQSEVEGVKNIMTQNVERILARGENLEHLRNKTEDLEATSEHFKTTSQKVARKFWWKN
# B4: aceF (Escherichia coli, UniProt P06959); sequence looked up; chain MAIEIKVPDIGADEVEITEILVKVGDKVEAEQSLITVEGDKASMEVPSPQAGIVKEIKVSVGDKTQTGALIMIFDSADGAADAAPAQAEEKKEAAPAAAPAAAAAKDVNVPDIGSDEVEVTEILVKVGDKVEAEQSLITVEGDKASMEVPAPFAGTVKEIKVNVGDKVSTGSLIMVFEVAGEAGAAAPAAKQEAAPAAAPAPAAGVKEVNVPDIGGDEVEVTEVMVKVGDKVAAEQSLITVEGDKASMEVPAPFAGVVKELKVNVGDKVKTGSLIMIFEVEGAAPAAAPAKQEAAAPAPAAKAEAPAAAPAAKAEGKSEFAENDAYVHATPLIRRLAREFGVNLAKVKGTGRKGRILREDVQAYVKEAIKRAEAAPAATGGGIPGMLPWPKVDFSKFGEIEEVELGRIQKISGANLSRNWVMIPHVTHFDKTDITELEAFRKQQNEEAAKRKLDVKITPVVFIMKAVAAALEQMPRFNSSLSEDGQRLTLKKYINIGVAVDTPNGLVVPVFKDVNKKGIIELSRELMTISKKARDGKLTAGEMQGGCFTISSIGGLGTTHFAPIVNAPEVAILGVSKSAMEPVWNGKEFVPRLMLPISLSFDHRVIDGADGARFITIINNTLSDIRRLVM
# B5: AHA2 850-948 (Arabidopsis thaliana, UniProt P19456); sequence looked up; chain WLNLFENKTAFTMKKDYGKEEREAQWALAQRTLHGLQPKEAVNIFPEKGSYRELSEIAEQAKRRAEIARLRELHTLKGHVESVVKLKGLDIETPSHYTV
# B6: CCDC32 (Mus musculus, UniProt Q8BS39); chain MKMFESLDSSATKSGRDLWAEICSCLPSPAQEDVSDNAFSDSFMDSHPAGESHTAAADSAVQPAGKPWAPLHDSEVYLASLEKKLRRIKGLNEEVTSKDMLRTLAQAKKECWDRFLQEKLASEFFVDGLDSDERTLEHFKRWLQPDKVAISTEEVQFLIPPESQAEKPEAGDKPAAAEQ
# B7: AZI2 1-75 (Homo sapiens, UniProt Q9H6S1); chain MDALVEDDICILNHEKAHKRDTVTPVSIYSGDESVASHFALVTAYEDIKKRLKDSEKENSLLKKRIRFLEEKLIA
# B8: NOTCH2 221-530 (Homo sapiens, UniProt Q04721); sequence looked up; chain LYVPCAPSPCVNGGTCRQTGDFTFECNCLPGFEGSTCERNIDDCPNHRCQNGGVCVDGVNTYNCRCPPQWTGQFCTEDVDECLLQPNACQNGGTCANRNGGYGCVCVNGWSGDDCSENIDDCAFASCTPGSTCIDRVASFSCMCPEGKAGLLCHLDDACISNPCHKGALCDTNPLNGQYICTCPQGYKGADCTEDVDECAMANSNPCEHAGKCVNTDGAFHCECLKGYAGPRCEMDINECHSDPCQNDATCLDKIGGFTCLCMPGFKGVHCELEINECQSNPCVNNGQCVDKVNRFQCLCPPGFTGPVCQ
# B9: tnsD 1-318 E35A (Escherichia coli, UniProt P13991); sequence looked up; chain MRNFPVPYSNELIYSTIARAGVYQGIVSPKQLLDAVYGNRKVVATLGLPSHLGVIARHLHQTGRYAVQQLIYEHTLFPLYAPFVGKERRDEAIRLMEYQAQGAVHLMLGVAASRVKSDNRFRYCPDCVALQLNRYGEAFWQRDWYLPALPYCPKHGALVFFDRAVDDHRHQFWALGHTELLSDYPKDSLSQLTALAAYIAPLLDAPRAQELSPSLEQWTLFYQRLAQDLGLTKSKHIRHDLVAERVRQTFSDEALEKLDLKLAENKDTCWLKSIFRKHRKAFSYLQHSIVWQALLPKLTVIEALQQASALTEHSITTR
# B10: gene 32 protein 22-301 (Enterobacteria phage T4, UniProt P03695); sequence looked up; chain GFSSEDKGEWKLKLDNAGNGQAVIRFLPSKNDEQAPFAILVNHGFKKNGKWYIETCSSTHGDYDSCPVCQYISKNDLYNTDNKEYSLVKRKTSYWANILVVKDPAAPENEGKVFKYRFGKKIWDKINAMIAVDVEMGETPVDVTCPWEGANFVLKVKQVSGFSNYDESKFLNQSAIPNIDDESFQKELFEQMVDLSEMTSKDKFKSFEELNTKFGQVMGTAVMGGAAATAAKKADKVADDLDAFNVDDFNTKTEDDFMSSSSGSSSSADDTDLDDLLNDL
# B11: POL30 1-258 (Saccharomyces cerevisiae, UniProt P15873); chain MLEAKFEEASLFKRIIDGFKDCVQLVNFQCKEDGIIAQAVDDSRVLLVSLEIGVEAFQEYRCDHPVTLGMDLTSLSKILRCGNNTDTLTLIADNTPDSIILLFEDTKKDRIAEYSLKLMDIDADFLKIEELQYDSTLSLPSSEFSKIVRDLSQLSDSINIMITKETIKFVADGDIGSGSVIIKPFVDMEHPETSIKLEMDQPVDLTFGAKYLLDIIKGSSLSDRVGIRLSSEAPALFQFDLKSGFLQFFLAPKFNDEE
# B12: RAD52 K144A (Homo sapiens, UniProt P43351); sequence looked up; chain MSGTEEAILGGRDSHPAAGGGSVLCFGQCQYTAEEYQAIQKALRQRLGPEYISSRMAGGGQKVCYIEGHRVINLANEMFGYNGWAHSITQQNVDFVDLNNGKFYVGVCAFVRVQLKDGSYHEDVGYGVSEGLKSKALSLEKARAEAVTDGLKRALRSFGNALGNCILDKDYLRSLNKLPRQLPLEVDLTKAKRQDLEPSVEEARYNSCRPNMALGHPQLQQVTSPSRPSHAVIPADQDCSSRSLSSSAVESEATHQRKLRQKQLQQQFRERMEKQQVRVSTPSAEKSEAAPPAPPVTHSTPVTVSEPLLEKDFLAGVTQELIKTLEDNSEKWAVTPDAGDGVVKPSSRADPAQTSDTLALNNQMVTQNRTPHSVCHQKPQAKSGSWDLQTYSADQRTTGNWESHRKSQDMKKRKYDPS
# B13: ATG9 1-100 (Saccharomyces cerevisiae, UniProt Q12142); sequence looked up; chain MERDEYQLPNSHGKNTFLSRIFGLQSDEVNPSLNSQEMSNFPLPDIERGSSLLHSTNDSREDVDENDLRVPESDQGTSTEEEDEVDEEQVQAYAPQISDG
# B14: RAD1 (Homo sapiens, UniProt O60671); sequence looked up; chain MPLLTQQIQDEDDQYSLVASLDNVRNLSTILKAIHFREHATCFATKNGIKVTVENAKCVQANAFIQAGIFQEFKVQEESVTFRINLTVLLDCLSIFGSSPMPGTLTALRMCYQGYGYPLMLFLEEGGVVTVCKINTQEPEETLDFDFCSTNVINKIILQSEGLREAFSELDMTSEVLQITMSPDKPYFRLSTFGNAGSSHLDYPKDSDLMEAFHCNQTQVNRYKISLLKPSTKALVLSCKVSIRTDNRGFLSLQYMIRNEDGQICFVEYYCCPDEEVPESES
# B15: MAPRE1 K174Q (Homo sapiens, UniProt Q15691); sequence looked up; chain MAVNVYSTSVTSDNLSRHDMLAWINESLQLNLTKIEQLCSGAAYCQFMDMLFPGSIALKKVKFQAKLEHEYIQNFKILQAGFKRMGVDKIIPVDKLVKGKFQDNFEFVQWFKKFFDANYDGKDYDPVAARQGQETAVAPSLVAPALNKPKKPLTSSSAAPQRPISTQRTAAAPQAGPGVVRKNPGVGNGDDEAAELMQQVNVLKLTVEDLEKERDFYFGKLRNIELICQENEGENDPVLQRIVDILYATDEGFVIPDEGGPQEEQEEY
# B16: RBCK1 260-510 (Homo sapiens, UniProt Q9BYM8-1); chain GNYLQHVQLDQRSLVLNTEPAECPVCYSVLAPGEAVVLRECLHTFCRECLQGTIRNSQEAEVSCPFIDNTYSCSGKLLEREIKALLTPEDYQRFLDLGISIAENRSAFSYHCKTPDCKGWCFFEDDVNEFTCPVCFHVNCLLCKAIHEQMNCKEYQEDLALRAQNDVAARQTTEMLKVMLQQGEAMRCPQCQIVVQKKDGCDWIRCTVCHTEICWVTKGPRWGPGGPGDTSGGCRCRVNGIPCHPSCQNCH
# Sequence of UniProt P49956 (whole entry, looked up): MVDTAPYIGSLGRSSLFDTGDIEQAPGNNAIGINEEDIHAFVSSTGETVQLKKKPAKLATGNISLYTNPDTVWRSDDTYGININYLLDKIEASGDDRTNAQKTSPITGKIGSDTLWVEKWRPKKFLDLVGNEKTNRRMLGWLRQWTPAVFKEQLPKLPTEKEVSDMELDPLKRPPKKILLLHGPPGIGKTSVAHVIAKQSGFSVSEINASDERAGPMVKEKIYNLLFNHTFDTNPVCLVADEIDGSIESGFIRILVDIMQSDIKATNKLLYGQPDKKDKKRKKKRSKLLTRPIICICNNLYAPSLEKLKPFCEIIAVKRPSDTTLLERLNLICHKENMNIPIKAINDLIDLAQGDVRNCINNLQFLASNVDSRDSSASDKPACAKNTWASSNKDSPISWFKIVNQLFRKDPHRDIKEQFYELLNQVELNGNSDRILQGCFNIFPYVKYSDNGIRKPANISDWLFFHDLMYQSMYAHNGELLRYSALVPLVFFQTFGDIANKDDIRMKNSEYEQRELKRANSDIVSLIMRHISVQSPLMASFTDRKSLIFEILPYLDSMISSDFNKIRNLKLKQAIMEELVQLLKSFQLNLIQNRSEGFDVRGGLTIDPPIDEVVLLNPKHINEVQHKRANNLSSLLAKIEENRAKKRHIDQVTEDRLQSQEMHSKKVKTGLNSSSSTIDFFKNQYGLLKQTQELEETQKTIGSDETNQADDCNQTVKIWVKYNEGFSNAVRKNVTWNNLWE
# Sequence of UniProt Q13137 (whole entry, looked up): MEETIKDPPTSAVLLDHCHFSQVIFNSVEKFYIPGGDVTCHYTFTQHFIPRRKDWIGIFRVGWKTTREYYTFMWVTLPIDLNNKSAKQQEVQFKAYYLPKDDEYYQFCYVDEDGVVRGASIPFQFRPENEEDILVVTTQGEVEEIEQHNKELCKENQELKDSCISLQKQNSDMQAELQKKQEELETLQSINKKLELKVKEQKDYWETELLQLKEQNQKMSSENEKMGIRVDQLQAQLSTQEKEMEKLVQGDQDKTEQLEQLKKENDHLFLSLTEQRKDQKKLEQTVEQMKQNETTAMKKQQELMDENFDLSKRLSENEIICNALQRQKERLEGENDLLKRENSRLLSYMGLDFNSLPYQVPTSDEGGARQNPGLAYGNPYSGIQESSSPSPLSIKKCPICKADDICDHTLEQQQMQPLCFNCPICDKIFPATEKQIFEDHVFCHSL
# Sequence of UniProt O95721 (whole entry, looked up): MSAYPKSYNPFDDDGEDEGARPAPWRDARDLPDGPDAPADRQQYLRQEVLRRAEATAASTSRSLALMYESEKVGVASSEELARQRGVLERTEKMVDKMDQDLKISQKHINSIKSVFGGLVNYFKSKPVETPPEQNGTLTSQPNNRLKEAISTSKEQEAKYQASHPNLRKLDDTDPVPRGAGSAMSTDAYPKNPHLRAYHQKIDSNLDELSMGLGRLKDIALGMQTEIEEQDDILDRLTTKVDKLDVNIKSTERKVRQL
# Sequence of UniProt P0AFG8 (whole entry, looked up): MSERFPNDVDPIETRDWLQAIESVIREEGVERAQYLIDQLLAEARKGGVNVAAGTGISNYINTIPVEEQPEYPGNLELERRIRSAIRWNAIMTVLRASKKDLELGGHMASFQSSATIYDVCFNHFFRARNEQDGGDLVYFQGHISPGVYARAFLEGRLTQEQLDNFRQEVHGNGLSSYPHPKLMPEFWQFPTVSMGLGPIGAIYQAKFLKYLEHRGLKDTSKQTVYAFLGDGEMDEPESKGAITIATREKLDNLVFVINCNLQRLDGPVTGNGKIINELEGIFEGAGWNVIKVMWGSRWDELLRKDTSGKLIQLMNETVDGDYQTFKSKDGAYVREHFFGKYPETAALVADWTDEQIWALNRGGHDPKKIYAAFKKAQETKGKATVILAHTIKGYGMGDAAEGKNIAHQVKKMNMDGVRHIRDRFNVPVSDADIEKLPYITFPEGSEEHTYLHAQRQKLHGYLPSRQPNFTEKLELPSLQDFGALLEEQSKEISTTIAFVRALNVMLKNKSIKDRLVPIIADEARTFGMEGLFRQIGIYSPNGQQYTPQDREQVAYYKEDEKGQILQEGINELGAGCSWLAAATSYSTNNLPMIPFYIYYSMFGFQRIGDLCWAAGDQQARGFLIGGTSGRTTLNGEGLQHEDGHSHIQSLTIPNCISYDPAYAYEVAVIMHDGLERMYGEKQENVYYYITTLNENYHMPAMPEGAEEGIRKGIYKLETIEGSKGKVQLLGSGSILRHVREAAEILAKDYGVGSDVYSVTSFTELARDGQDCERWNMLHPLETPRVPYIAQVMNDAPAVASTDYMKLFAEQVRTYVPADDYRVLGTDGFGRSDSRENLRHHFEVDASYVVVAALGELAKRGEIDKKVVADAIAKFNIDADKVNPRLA
# Sequence of UniProt Q9NR61 (whole entry, unmodified, looked up): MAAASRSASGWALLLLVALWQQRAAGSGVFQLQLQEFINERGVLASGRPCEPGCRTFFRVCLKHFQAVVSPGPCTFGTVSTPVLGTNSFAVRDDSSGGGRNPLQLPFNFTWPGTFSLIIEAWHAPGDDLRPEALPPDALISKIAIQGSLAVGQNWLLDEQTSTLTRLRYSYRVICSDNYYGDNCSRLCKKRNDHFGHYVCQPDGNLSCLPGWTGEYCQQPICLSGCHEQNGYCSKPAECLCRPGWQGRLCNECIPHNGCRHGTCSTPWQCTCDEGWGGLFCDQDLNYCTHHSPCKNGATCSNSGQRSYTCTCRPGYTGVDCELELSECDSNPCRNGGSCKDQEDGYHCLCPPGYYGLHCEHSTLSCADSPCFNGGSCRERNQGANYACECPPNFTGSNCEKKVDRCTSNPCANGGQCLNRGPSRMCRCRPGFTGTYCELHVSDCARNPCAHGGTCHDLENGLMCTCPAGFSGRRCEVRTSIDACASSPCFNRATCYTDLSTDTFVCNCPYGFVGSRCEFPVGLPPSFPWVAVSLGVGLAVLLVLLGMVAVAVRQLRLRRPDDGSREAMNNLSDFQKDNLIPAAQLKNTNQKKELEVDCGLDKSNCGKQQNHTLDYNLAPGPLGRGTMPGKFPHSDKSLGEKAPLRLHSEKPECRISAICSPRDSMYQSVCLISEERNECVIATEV
# Sequence of UniProt O65370 (whole entry, looked up): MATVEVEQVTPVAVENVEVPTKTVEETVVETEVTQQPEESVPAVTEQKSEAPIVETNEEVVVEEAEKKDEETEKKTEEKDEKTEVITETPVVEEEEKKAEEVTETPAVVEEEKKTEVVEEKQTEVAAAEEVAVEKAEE
# Sequence of UniProt P60520 (whole entry, looked up): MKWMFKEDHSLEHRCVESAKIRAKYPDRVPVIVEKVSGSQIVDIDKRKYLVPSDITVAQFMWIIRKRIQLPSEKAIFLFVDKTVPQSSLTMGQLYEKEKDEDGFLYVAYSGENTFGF
# Sequence of UniProt P84091 (whole entry, looked up): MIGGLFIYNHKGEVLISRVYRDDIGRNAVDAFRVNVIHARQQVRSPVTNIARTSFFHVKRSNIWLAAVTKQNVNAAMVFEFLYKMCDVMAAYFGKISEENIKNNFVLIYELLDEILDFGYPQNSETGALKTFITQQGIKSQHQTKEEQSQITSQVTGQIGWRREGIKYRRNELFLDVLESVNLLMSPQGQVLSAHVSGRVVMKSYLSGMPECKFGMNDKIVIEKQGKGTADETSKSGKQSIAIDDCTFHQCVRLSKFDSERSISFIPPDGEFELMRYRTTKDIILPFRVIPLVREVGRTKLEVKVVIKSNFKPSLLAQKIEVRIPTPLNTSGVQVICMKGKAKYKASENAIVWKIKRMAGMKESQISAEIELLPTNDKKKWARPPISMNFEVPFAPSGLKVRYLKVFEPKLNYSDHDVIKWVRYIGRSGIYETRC
# Sequence of UniProt P18858 (whole entry, looked up): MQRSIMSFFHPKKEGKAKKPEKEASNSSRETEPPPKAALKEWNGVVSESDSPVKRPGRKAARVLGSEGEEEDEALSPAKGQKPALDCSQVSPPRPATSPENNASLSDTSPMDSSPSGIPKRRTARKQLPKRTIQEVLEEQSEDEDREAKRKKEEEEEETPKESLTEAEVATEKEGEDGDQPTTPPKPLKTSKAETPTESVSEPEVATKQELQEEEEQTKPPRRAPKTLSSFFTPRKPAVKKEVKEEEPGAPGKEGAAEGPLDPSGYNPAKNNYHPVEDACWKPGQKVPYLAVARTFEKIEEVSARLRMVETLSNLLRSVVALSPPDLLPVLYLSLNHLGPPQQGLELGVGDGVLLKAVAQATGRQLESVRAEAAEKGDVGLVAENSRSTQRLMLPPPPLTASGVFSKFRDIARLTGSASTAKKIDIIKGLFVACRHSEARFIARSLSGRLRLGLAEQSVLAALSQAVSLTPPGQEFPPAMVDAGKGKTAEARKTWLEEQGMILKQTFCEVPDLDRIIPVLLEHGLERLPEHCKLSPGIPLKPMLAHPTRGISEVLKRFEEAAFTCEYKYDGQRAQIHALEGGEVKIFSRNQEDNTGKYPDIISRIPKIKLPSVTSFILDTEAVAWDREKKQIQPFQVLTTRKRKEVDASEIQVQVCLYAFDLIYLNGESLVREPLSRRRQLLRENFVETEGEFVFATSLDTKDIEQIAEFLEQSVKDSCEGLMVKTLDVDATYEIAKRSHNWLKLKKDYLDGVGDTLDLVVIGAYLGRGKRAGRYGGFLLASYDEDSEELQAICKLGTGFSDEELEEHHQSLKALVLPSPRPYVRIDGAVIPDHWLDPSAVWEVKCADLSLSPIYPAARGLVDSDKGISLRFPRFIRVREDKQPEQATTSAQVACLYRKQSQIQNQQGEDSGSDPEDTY
# Sequence of UniProt O95210 (whole entry, looked up): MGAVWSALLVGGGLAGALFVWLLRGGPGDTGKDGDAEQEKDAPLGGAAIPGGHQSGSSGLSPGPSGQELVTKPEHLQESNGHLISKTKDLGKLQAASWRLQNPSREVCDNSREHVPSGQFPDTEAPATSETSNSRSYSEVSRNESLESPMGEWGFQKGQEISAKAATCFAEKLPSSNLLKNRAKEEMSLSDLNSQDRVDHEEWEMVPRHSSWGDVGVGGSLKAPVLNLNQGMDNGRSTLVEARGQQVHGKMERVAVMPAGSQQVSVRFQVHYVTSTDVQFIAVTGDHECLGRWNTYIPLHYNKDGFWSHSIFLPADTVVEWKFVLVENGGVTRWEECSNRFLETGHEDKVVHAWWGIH
Molecule,target or system,assay,test system,setting,scale,quantity,result
"VGSPKNAVPPC (IL1RAP 234-243 (Homo sapiens); cyclic, C-terminal amide, acetylated N-terminus)","IL1RL1/IL33 ST2 , IL-33 19-328",pull-down,peptide,,,binding,binds
"VVPGQFDDADSSD (RIOK1 residues 11-23; N-acetyl, C-terminal amide)",PRMT5/WDR77 fragment (Homo sapiens),crystal structure,peptide,,,binding,binds
B1 (human EEF1A1),PP6C (human),"co-immunoprecipitation, IP-MS",CYB5R4 knockout cells,concentration not given,relative to: CYB5R4 knockout over parental,log2 fold change,-0.25
B2 (MAP1LC3C),"HEATR3 (Homo sapiens, UniProt Q7Z4Q2)",pull-down,,,,binding,binds
B3 (VAMP8 8-73),"SNAP29 (Homo sapiens, UniProt O95721)",pull-down,,,,binding,binds
GSGSPVPSTPPTPSPSTPPTPSPSCCHPRR (IGHA1 hinge 252-276 (Homo sapiens); GalNAc glycosylated),TFRC fragment (Homo sapiens),SPR,peptide,,,binding,binds
B4 (aceF),"aceE 2-887 (Escherichia coli, UniProt P0AFG8)","class averages, 2D, cryo-EM",,,,binding,binds
B5 (AHA2 850-948),"CCaP2 (Arabidopsis thaliana, UniProt O65370)",pull-down,,in vitro,,binding,binds
B6 (CCDC32),"Ap2m1 122-435 (Mus musculus, UniProt P84091)",pull-down,,,,binding,binds
B7 (AZI2 1-75),"CALCOCO2 1-316 (Homo sapiens, UniProt Q13137)",SEC,,,,binding,binds
human annexin A2,PP6C (human),"co-immunoprecipitation, IP-MS",CYB5R4 knockout cells,concentration not given,relative to: CYB5R4 knockout over parental,log2 fold change,0.1
B8 (NOTCH2 221-530),"DLL4 27-400 N257P/T271L/F280Y/S301R/Q305P (Homo sapiens, UniProt Q9NR61)",SPR,,,,binding,binds
B9 (tnsD 1-318 E35A),"tnsC 1-503 (Escherichia coli, UniProt P05846)",dynamic light scattering,,with: ATP,,binding,binds
B10 (gene 32 protein 22-301),"Dda helicase (bacteriophage T4, UniProt P32270)",EMSA,,,,binding,binds
B11 (POL30 1-258),"CTF18 (Saccharomyces cerevisiae, UniProt P49956)",cryo-EM,,,,binding,binds
B12 (RAD52 K144A),"SETX (Homo sapiens, UniProt Q7Z333)",pull-down,,,,binding,binds
"KESALRKQDLLLIFDPLFR (TACC3 to 568 550-568 S558D/Y560L/K562I/L567F (Homo sapiens, UniProt Q9Y6A5); sequence looked up)","CLTC 358-574 (Homo sapiens, UniProt Q00610)",peptide array,peptide,,,binding,binds
B13 (ATG9 1-100),"ATG23 A377E (Saccharomyces cerevisiae, UniProt Q06671)",pull-down,,"15 minutes, 4 °C",,binding,binds
B14 (RAD1),"LIG1 233-534 (Homo sapiens, UniProt P18858)",pull-down,,"1 hr, 4 °C",,binding,binds
colistin,Acinetobacter baumannii,,clinical isolate RKI 19/09,,,MIC,0.5 µg/mL
B15 (MAPRE1 K174Q),"MAPRE1 (Homo sapiens, UniProt Q15691)",pull-down,,,,binding,binds
"HEEWEMVPRHS (STBD1 200-210 (Homo sapiens, UniProt O95210))","Gamma-aminobutyric acid receptor-associated protein-like 2 (Homo sapiens, UniProt P60520)",SEC,,,,binding,binds
B16 (RBCK1 260-510),linear di-ubiquitin two Ub units (UniProt P0CG48),ITC,,25 °C,,binding,binds

# Excerpt of the above:
Molecule,target or system,assay,test system,setting,scale,quantity,result
B10 (gene 32 protein 22-301),"Dda helicase (bacteriophage T4, UniProt P32270)",EMSA,,,,binding,binds
B11 (POL30 1-258),"CTF18 (Saccharomyces cerevisiae, UniProt P49956)",cryo-EM,,,,binding,binds
B12 (RAD52 K144A),"SETX (Homo sapiens, UniProt Q7Z333)",pull-down,,,,binding,binds
